Experimental data of several laboratories.
Each line is one published result; not all experiments were run side by side. ± gives the spread as reported.

COc1ccc2cc([C@H](C)C(=O)NCCCC[C@@H](NC(=O)[C@@H](Cc3ccccc3)NC(=O)[C@H](N)Cc3ccccc3)C(=O)N[C@H](Cc3ccc(O)cc3)C(=O)O)ccc2c1 — cumulative release (hydrogel 0.8 wt% into PBS; 24 h, pH 7.4, 37 °C): 31.7%
N=C(N)NCCC[C@@H]1NC(=O)[C@H](CCCCNC(=O)CC[C@H](NC(=O)CC[C@H](NC(=O)CN2CCN(CC(=O)O)CCN(CC(=O)O)CCN(CC(=O)O)CC2)C(=O)N[C@@H](CCC(=O)NCCCC[C@@H]2NC(=O)[C@@H](Cc3ccccc3)NC(=O)[C@H](CC(=O)O)NC(=O)CNC(=O)[C@H](CCCNC(=N)N)NC2=O)C(=O)NCCCC[C@@H]2NC(=O)[C@@H](Cc3ccccc3)NC(=O)[C@H](CC(=O)O)NC(=O)CNC(=O)[C@H](CCCNC(=N)N)NC2=O)C(=O)NCCCC[C@@H]2NC(=O)[C@@H](Cc3ccccc3)NC(=O)[C@H](CC(=O)O)NC(=O)CNC(=O)[C@H](CCCNC(=N)N)NC2=O)NC(=O)[C@@H](Cc2ccccc2)NC(=O)[C@H](CC(=O)O)NC(=O)CNC1=O [indium-111 labelled] — tissue uptake (female athymic nu/nu mice, kidney; intravenous, 24 h): 5.11 ± 0.52 %ID/g
CCCC[C@H](NC(=O)CNC(=O)CNC(=O)CN1CCN(CC(=O)O)CCN(CC(=O)O)CC1)C(=O)N[C@H]1CC(=O)NCCCC[C@@H](C(N)=O)NC(=O)[C@H](Cc2c[nH]c3ccccc23)NC(=O)[C@H](CCCNC(=N)N)NC(=O)[C@@H](Cc2ccccc2)NC(=O)[C@H](Cc2c[nH]cn2)NC1=O [technetium-99m labelled] — tissue uptake (C57 mouse, lung; iv, 0.037 MBq, 0.5 h): 2.11 ± 0.65 %ID/g
CCCC[C@H](NC(=O)CNC(=O)CNC(=O)CN1CCN(CC(=O)O)CCN(CC(=O)O)CCN(CC(=O)O)CC1)C(=O)N[C@H]1CC(=O)NCCCC[C@@H](C(N)=O)NC(=O)[C@H](Cc2c[nH]c3ccccc23)NC(=O)[C@H](CCCNC(=N)N)NC(=O)[C@@H](Cc2ccccc2)NC(=O)[C@H](Cc2c[nH]cn2)NC1=O [lutetium-177 labelled] — tissue uptake (C57 mouse, female, tumour; intravenous, 0.037 MBq, 2 h): 21.6 ± 6.27 %ID/g
C=C1CC[C@H](OCCCNC(=O)CCOCCOCCOCCOCCOCCOCCOCCOCCOCCOCCOCCOCCOCCOCCOCCOCCOCCOCCOCCOCCOCCOCCOCCOCCOCCOCCOCCOCCOCCOCCOCCOCCOCCOCCOCCOCCNC(=O)CCN2C(=O)CC(SC[C@H](NC(=O)[C@H](Cc3ccccc3)NC(=O)[C@H](CC(N)=O)NC(=O)[C@H](Cc3c[nH]cn3)NC(=O)[C@@H](NC(=O)[C@H](CC(=O)O)NC(=O)[C@H](CCC(N)=O)NC(=O)[C@H](CC(C)C)NC(=O)[C@H](CCCCN)NC(=O)[C@H](CCCCN)NC(=O)[C@H](CCCNC(=N)N)NC(=O)[C@H](CC(C)C)NC(=O)[C@H](Cc3c[nH]c4ccccc34)NC(=O)[C@H](CCC(=O)O)NC(=O)[C@@H](NC(=O)[C@H](CCCNC(=N)N)NC(=O)[C@H](CCC(=O)O)NC(=O)[C@H](CCSC)NC(=O)[C@H](CO)NC(=O)[C@H](CC(N)=O)NC(=O)[C@H](CC(C)C)NC(=O)[C@H](Cc3c[nH]cn3)NC(=O)[C@H](CCCCN)NC(=O)CNC(=O)[C@H](CC(C)C)NC(=O)[C@H](CC(N)=O)NC(=O)[C@H](Cc3c[nH]cn3)NC(=O)[C@H](CCSC)NC(=O)[C@H](CC(C)C)NC(=O)[C@H](CCC(N)=O)NC(=O)[C@@H](NC(=O)[C@H](CCC(=O)O)NC(=O)[C@H](CO)NC(=O)[C@@H](NC(=O)[C@@H](N)CO)C(C)C)[C@@H](C)CC)C(C)C)C(C)C)C(N)=O)C2=O)C/C1=C/C=C1\CCC[C@]2(C)[C@@H]([C@H](C)CCCC(C)(C)O)CC[C@@H]12 (stereo partly drawn) — dose-normalised AUC (cynomolgus monkey; sc, 2 µg/kg every other day, 89 days; relative to: 0.7 µg/kg dose): 0.45
N=C(N)NCCC[C@@H]1NC(=O)[C@H](CCCCNC(=O)CNC(=O)CNC(=O)CNC(=O)CC[C@H](NC(=O)CNC(=O)CNC(=O)CNC(=O)CN2CCN(CC(=O)O)CCN(CC(=O)O)CCN(CC(=O)O)CC2)C(=O)NCC(=O)NCC(=O)NCC(=O)NCCCC[C@@H]2NC(=O)[C@@H](Cc3ccccc3)NC(=O)[C@H](CC(=O)O)NC(=O)CNC(=O)[C@H](CCCNC(=N)N)NC2=O)NC(=O)[C@@H](Cc2ccccc2)NC(=O)[C@H](CC(=O)O)NC(=O)CNC1=O [indium-111 labelled] — tissue uptake (female athymic nu/nu mice, liver; intravenous, 24 h): 1.52 ± 0.15 %ID/g
CCCC[C@H](NC(=O)CCCCCCCNC(=O)CN1CCN(CC(=O)O)CCN(CC(=O)O)CC1)C(=O)N[C@H]1CC(=O)NCCCC[C@@H](C(N)=O)NC(=O)[C@H](Cc2c[nH]c3ccccc23)NC(=O)[C@H](CCCNC(=N)N)NC(=O)[C@@H](Cc2ccccc2)NC(=O)[C@H](Cc2c[nH]cn2)NC1=O [copper-64 labelled] — tissue uptake (C57 mice, tumor; intravenous, 0.37 MBq, 4 h): 5.47 ± 0.52 %ID/g
N=C(N)NCCC[C@@H]1NC(=O)[C@H](CCCCNC(=O)CNC(=O)CNC(=O)CNC(=O)CC[C@H](NC(=O)CNC(=O)CNC(=O)CNC(=O)CC[C@H](NC(=O)CN2CCN(CC(=O)O)CCN(CC(=O)O)CCN(CC(=O)O)CC2)C(=O)NCC(=O)NCC(=O)NCC(=O)N[C@@H](CCC(=O)NCC(=O)NCC(=O)NCC(=O)NCCCC[C@@H]2NC(=O)[C@@H](Cc3ccccc3)NC(=O)[C@H](CC(=O)O)NC(=O)CNC(=O)[C@H](CCCNC(=N)N)NC2=O)C(=O)NCC(=O)NCC(=O)NCC(=O)NCCCC[C@@H]2NC(=O)[C@@H](Cc3ccccc3)NC(=O)[C@H](CC(=O)O)NC(=O)CNC(=O)[C@H](CCCNC(=N)N)NC2=O)C(=O)NCC(=O)NCC(=O)NCC(=O)NCCCC[C@@H]2NC(=O)[C@@H](Cc3ccccc3)NC(=O)[C@H](CC(=O)O)NC(=O)CNC(=O)[C@H](CCCNC(=N)N)NC2=O)NC(=O)[C@@H](Cc2ccccc2)NC(=O)[C@H](CC(=O)O)NC(=O)CNC1=O [indium-111 labelled] — tissue uptake (female athymic nu/nu mice, blood; intravenous, 0.5 h): 0.97 ± 0.1 %ID/g
CC(C)C[C@@H](NC(=O)[C@@H](CCC(=O)O)NC(=O)[C@@H](CC(C)C)NC(=O)[C@@H](CC(C)C)NC(=O)[C@@H](CC(C)C)NC(=O)[C@H](NC(=O)[C@@H](CCC(=O)O)NC(=O)[C@H](NC(=O)[C@H]1CCCN1C(=O)[C@@H](Cc1ccccc1)NC(=O)[C@@H](CC(C)C)NC(=O)[C@@H](Cc1c[nH]c2ccccc12)NC(=O)[C@@H](CCC(=O)O)NC(=O)[C@@H](CC(C)C)NC(=O)[C@@H](Cc1ccc(O)cc1)NC(=O)[C@@H](CCCNC(=N)N)NC(=O)[C@@H](C)NC(=O)[C@@H](Cc1c[nH]c2ccccc12)NC(=O)[C@H]1CCCN1C(=O)[C@@H](CC(N)=O)NC(=O)[C@@H](CCC(N)=O)NC(=O)[C@@H](CCC(=O)O)NC(=O)[C@@H](CCC(=O)O)NC(=O)[C@@H](CS)NC(=O)[C@@H](C)NC(=S)Nc1ccc(CC2CN(CC(=O)O)CCN(CC(=O)O)CCN2CC(=O)O)cc1)[C@H](C)O)[C@H](C)O)C(=O)O (stereo partly drawn) [fluorine-18 labelled] — kidney-to-large intestine ratio (female BALB/c mice, 4T1 orthotopic tumour; intravenous, 2 h; relative to: kidney over large intestine): 0.55 ± 0.19
